Published values collected from several papers.
Compare with care: the assays were run in different laboratories. “And” joins repeats or separate records; there may be more than shown.
Target: Serine/threonine-protein kinase 3 (STK3, Homo sapiens, UniProt Q13188)

assay	system	conditions	scale	measurement	value	SMILES
kinase activity		0.1 µM, added: ATP at Km		inhibition	-23.6%	CCn1cc(C(=O)O)c(=O)c2c(N)c(F)c(NC3CCCCC3)cc21
binding, competition with immobilised ligand		0.1 µM		remaining binding	92%	Cc1cnc2nc1Nc1cccc(c1)COC/C=C/COCc1cc(ccc1OCCN1CCOCC1)N2
enzyme activity, Dundee kinase panel		10 µM		remaining activity	100%	Cc1cccc(-c2ccc3nc(NC(=O)C4CCCO4)nn3c2)c1 (stereo not drawn)
enzyme activity, inhibitor		10 µM		inhibition	0%	Cc1cccc(O[C@H]2CCC[C@@H](C(C)CNCc3ccncc3)C2)c1 (relative stereo)
enzyme activity, inhibitor		10 µM		remaining activity	42%	Nc1nc(Nc2ccccc2)sc1C(=O)c1ccccc1
enzyme activity, inhibitor		20 µM		inhibition	5%	COc1ccc(C(=O)/C=C/c2ccccc2-c2c[nH]c3ccc(C#N)cc23)c(O)c1
enzyme activity		100 nM, human enzyme, added: 10 µM ATP	reference: untreated	remaining activity	50%	O=C=[N][Ru-4]123([n]4c5ccc(O)cc5c5c6c(c7cc(F)c[n+]1c7c54)C(=O)NC6=O)[S+]1CC[S+]2CC[S+]3CC1 (stereo not drawn)
target engagement, NanoBRET	human cells			Hill slope	1.33	Cc1ccc(C(=O)Nc2ccc(CN3CCN(C)CC3)c(C(F)(F)F)c2)cc1C#Cc1cnc2cccnn12
kinase activity, KinaseProfiler		0.03 µM, species human	reference: control	remaining activity	87%	COc1ccc(NC(=O)Nc2ccc3c(c2)C(=O)N(C(C)CO)CC(C)C(CN(C)Cc2ccc4c(c2)OCO4)O3)cc1 (stereo not drawn)
cell-free assay, competition with immobilised ligand		1 µM		remaining binding	100%	Cc1ccc(-c2c(/C=C(\C#N)C(=O)NC(C)C)n(CCCO)c3ncnc(N)c23)cc1
kinase activity		0.1 µM		inhibition	73% and 74%	C=CC(=O)Nc1cccc(-c2cnc3[nH]cc(C(=O)NC(C)(C)C)c3n2)c1
enzyme activity, inhibitor		1 µM		remaining activity	110%	O=c1c(-c2ccc(Cl)c(CN3CCOCC3)c2)coc2cc(O)ccc12
binding, competition with immobilised ligand		1 µM		remaining binding	100%	CNC(=O)C1CCN(c2cc(C)c(F)cc2NC(=O)c2ccc(-c3cc(O)ccc3C)c(C)c2)CC1
enzyme activity, inhibitor		1 µM		inhibition	-18%	CN1CC[C@@H](COc2cnc(C#N)cc2-c2ccn3nc(NC(=O)C4CC4)cc3c2)C1
inhibitor, KiNativ profiling	biochemical	2 µM		inhibition	17.8%	C=CC(=O)Nc1cc(-c2nn(C3CCN(CCNC(=O)[C@H](C)CCC45CC6CC(CC(C6)C4)C5)CC3)c3ncnc(N)c23)ccc1Oc1ccccc1
enzyme activity, Dundee kinase panel		10 µM		remaining activity	107%	Cc1cccc(-c2ccc3nc(NC(=O)C4CCCCC4)nn3c2)c1
cell-free assay, inhibitor		1 µM		inhibition	7.9%	C=CC(=O)N1Cc2nc(-c3cc(-c4cc(Cl)cnc4Cl)c(F)cc3F)n(-c3ccncn3)c2C1
inhibitor		1 µM, MST2	reference: control	remaining activity	100%	COc1cc(Nc2nc(C)cc(-c3cnn4nc(OC)ccc34)n2)cc(C(F)(F)F)c1
binding, competition with immobilised ligand		3 µM		remaining binding	92%	COc1c(Cl)cccc1Nc1c(-c2ccncc2C#C[C@@]2(C)CCCN2C(=O)/C=C/CN(C)C)[nH]c2c1C(=O)NCC2
enzyme activity, inhibitor		10 µM		inhibition	3%	NC(=O)C[C@H]1CCc2sc3ncnc(O[C@H]4CC[C@H](N5CCOCC5)CC4)c3c21
cell-free assay, competition with immobilised ligand		1 µM		remaining binding	100%	C=CC(=O)N1CCCC(n2c(=O)c3ncccc3n(Cc3ccc(Oc4ccccc4)cc3)c2=O)C1 (stereo not drawn)

A few entries again:
assay	system	conditions	scale	measurement	value	SMILES
enzyme activity, inhibitor		10 µM		inhibition	3%	NC(=O)C[C@H]1CCc2sc3ncnc(O[C@H]4CC[C@H](N5CCOCC5)CC4)c3c21
binding, competition with immobilised ligand		1 µM		remaining binding	100%	CNC(=O)C1CCN(c2cc(C)c(F)cc2NC(=O)c2ccc(-c3cc(O)ccc3C)c(C)c2)CC1
